Measured values pooled from the literature.
Parts stem from different laboratories: compare values within a part only.

Series 1
Target: RING finger protein unkempt homolog, zinc fingers 1-6, GST-SBP tag (UNK, Homo sapiens, UniProt Q9C0B0, residues 30-357)
UniProt Q9C0B0, sequence (30-357, looked up): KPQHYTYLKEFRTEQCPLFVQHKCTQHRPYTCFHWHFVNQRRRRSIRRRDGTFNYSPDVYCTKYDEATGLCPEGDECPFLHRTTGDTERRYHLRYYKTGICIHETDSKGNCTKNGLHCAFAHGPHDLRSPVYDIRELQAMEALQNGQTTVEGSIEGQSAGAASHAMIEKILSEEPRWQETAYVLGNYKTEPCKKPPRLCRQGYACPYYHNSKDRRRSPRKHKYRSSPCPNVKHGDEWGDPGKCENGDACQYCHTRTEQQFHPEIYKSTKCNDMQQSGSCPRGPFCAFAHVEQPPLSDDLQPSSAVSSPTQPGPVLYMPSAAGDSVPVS
Technique: RNA Bind-n-Seq
Molecule type: RNA
Matrix: in vitro
Concentration: not given
Setting: RNA with constant flanks, human-mouse chimeric sites, ends assumed
Reference: input RNA pool
Reading: higher = stronger binding
Sequence | bound/input enrichment [ratio]
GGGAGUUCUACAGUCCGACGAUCUCUUUAAAAAAAAAAUUACCUUUUCUGCAUAUUAUAGCCCUCCCAUAGAUCCACGUUCAAGCUCAAAGAGCAAAGGCUUUGCACGGAGCUCAAACAUCUGAUGAAGAUUUUUGAGACAGACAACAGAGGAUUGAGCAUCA | 5.36
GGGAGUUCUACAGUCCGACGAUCUAAGUCCAUUUGUAAGCCUUCGCUCAUAAAGUUUUAAAUUCUGGACCAAUAGUGUUUGUUUCCUGAUUAUUGUAUCCAAUACUUUGCCUAGUAUGUAACUCACUCUUACUGAUAAUAAAACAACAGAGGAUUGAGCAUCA | 1.52
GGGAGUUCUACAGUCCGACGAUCGUAGCUGGCCAUUAGGAAGAAUGCUGAAUUUCAGUCACUUGCUGAUGACUUCUGAUGUCCCAGCAAAUGUUGGCAUUGUUGACUGCUGAGAAGAUACUUCUGAGGACCCACGUCUAAGGUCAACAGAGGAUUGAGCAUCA | 0.244
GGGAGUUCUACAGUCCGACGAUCAAGGUGAUGACUAUGUUUGUCCAACGACAGGUAUUUUCUGAGAACAAAGAUGAGAUUGCGUUAGUCCUCUAUGGCACAGAUGGCACUGAUAAUGCCCUUGCUGGCAAGGACCAGUAUCAGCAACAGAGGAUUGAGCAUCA | 0.0993
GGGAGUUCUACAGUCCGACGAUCCGCUGGCCCAAGCUGAUGGACUCUGAUGGCCUCCAUCUCUCAGGCACGUGUGCCUUCUCUUAGUUAUUGUUUUCGGGAUGUUAUGAAUCUCAGUACUGUGGUUUGAAAGCAGUUAUGUUGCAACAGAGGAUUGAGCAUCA | 7.31
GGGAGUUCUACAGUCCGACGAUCACUCAGAGAUUAUAUUCCCAAAGUGCUGGGAGUAAAGGUGUGGCCACUCAAUUCUCCUUGAUGGAUAUAUAUUUUUUUUAAUAUGAAUCUUCCUGUUCGUCCAGGGAAGAAAGAUUUGUUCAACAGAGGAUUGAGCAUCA | 0.54
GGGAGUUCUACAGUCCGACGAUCCACGUGUCUGCAGUGCUUGAUGUGGACUACUCUCCCACUGGGAAGGAAUUUGUGUCUGCCAGCUUUGAUAAGUCUAUUAGAAUCUUUCCUGUGGACAAAAGUCGAAGCAGGGAAGUGUAUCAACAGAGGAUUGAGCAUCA | 0.597
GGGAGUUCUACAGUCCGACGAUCUUUGUUUUUAUGCUAAGCACACGUGCUGGUGGUCUGGGCAUCAAUCUUGCAACUGCUGAUGUAGUCAUUUUAUAUGACUCAGAUUGGAAUCCGCAAGUUGAUCUUCAGGCUAUGGACCGUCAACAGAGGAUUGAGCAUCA | 0.136
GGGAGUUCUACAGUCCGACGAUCGCCACCAGAUCCCAGAAACAUGACCCUUGCUGCCUACAAGGAGAAGAUGAAGGAGCUCCCGCUGGUGUCCUUGUUCUGCUCUUGCUUCCUGGCCGAUCCCCUGAAUAAGUCGUCCUACAACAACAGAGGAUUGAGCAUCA | 0.248
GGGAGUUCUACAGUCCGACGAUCGAGCCCAGUCGGCAGUUUGUAAAGGACUCAAUUCGGCUGGUUAAAAGAUGCACUAAACCCGACAGAAAAGAAUUCCAGAAGAUUGCCAUGGCUACAGCUAUAGGAUUUGCUAUCAUGGGACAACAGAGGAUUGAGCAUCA | 0.201
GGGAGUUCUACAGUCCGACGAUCUCAGUCUUUUUGUACAGCUUUGUAAAUUCUUAACAUUUUUAUAUUGCCAUGUUUAUUUUGUUUGGGUAAUUUGGUUCAUUAAGUACAAAACCAAAUAAAUGAACAUCUUUUUCAGUAAUUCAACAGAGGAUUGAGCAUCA | 1.6

Series 2
Target: Sal-like protein 4, full length isoform A (SALL4, Homo sapiens, UniProt Q9UJQ4, residues 1-1053)
UniProt Q9UJQ4, sequence (whole entry, looked up): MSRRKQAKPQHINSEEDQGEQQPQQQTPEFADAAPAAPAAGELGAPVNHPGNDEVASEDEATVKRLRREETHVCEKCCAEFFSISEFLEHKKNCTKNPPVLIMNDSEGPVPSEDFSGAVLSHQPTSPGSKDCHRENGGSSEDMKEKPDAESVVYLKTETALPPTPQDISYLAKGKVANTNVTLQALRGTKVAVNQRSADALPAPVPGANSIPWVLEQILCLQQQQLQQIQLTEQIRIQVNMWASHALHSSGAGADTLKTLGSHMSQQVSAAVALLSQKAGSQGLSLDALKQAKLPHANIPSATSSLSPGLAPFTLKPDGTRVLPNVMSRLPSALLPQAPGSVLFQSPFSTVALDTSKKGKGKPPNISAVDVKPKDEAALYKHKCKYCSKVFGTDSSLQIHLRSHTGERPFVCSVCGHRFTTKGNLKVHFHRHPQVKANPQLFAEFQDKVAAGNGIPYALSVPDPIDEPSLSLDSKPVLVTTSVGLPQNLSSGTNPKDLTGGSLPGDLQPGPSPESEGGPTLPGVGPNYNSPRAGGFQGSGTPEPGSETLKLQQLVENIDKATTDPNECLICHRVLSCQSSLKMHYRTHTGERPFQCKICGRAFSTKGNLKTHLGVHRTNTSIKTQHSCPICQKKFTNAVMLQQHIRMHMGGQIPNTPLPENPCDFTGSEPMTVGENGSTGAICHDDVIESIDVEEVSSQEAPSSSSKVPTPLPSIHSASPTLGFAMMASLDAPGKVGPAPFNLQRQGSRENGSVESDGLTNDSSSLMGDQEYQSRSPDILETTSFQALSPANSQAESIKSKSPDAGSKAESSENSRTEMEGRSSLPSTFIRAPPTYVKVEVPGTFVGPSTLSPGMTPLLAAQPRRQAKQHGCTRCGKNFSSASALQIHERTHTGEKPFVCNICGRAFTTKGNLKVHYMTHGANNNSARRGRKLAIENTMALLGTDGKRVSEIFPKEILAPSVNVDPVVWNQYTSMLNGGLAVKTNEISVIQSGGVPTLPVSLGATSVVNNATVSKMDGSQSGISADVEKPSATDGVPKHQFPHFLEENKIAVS
Technique: universal PBM
Molecule type: double-stranded DNA, one strand shown
Matrix: in vitro
Concentration: 600 nM
Setting: 8-mer, flanks averaged, mean of replicates
Reading: higher = stronger binding
Sequence | E-score
GCCCAATA | 0.0784
CGGGCAAG | -0.237
ACTCTTCC | -0.00655
CTATTCTA | 0.186
GCGTATCC | -0.259
TAAACACA | 0.159
AGAAGACA | 0.103
ATCCACAT | 0.244
ACCGACTC | -0.113
AATAGCCC | -0.0483
AGGGTATC | -0.0936
ACGTCAAT | 0.0186
CCCGTAAC | -0.0951
CATAGTGA | 0.127
ATGATTGA | 0.225
ACTACGAG | 0.000785
GTTCTATA | 0.242
CATCGTCA | 0.0587

Series 3
Target: Interferon regulatory factor 5, full length, phosphomimetic (IRF5, Homo sapiens, UniProt Q13568-2, residues 1-514, S451D/S453D/S456D/S462D)
Technique: protein-binding microarray
Molecule type: double-stranded DNA, one strand shown
Matrix: in vitro
Concentration: 940 nM top
Setting: 60-bp whole probe
Added: salmon DNA 0.4 mg/ml
Reference: random background probes
Reading: higher = stronger binding
Shared flanks, not repeated: GCCTAGCAC … GTCTTGATTCGCTTGACGCTGCTG
Sequence | fitted relative affinity
GACGGACTGGACTATCGTGACGTGCTA | -0.749 z-score
GACGTTTTCGGACTGGGGACGTGCTAG | 0.684 z-score
GACGATATCAGACTGGAGAGGTGCTAG | -0.208 z-score
GACGATATCTGACTGGAGACGTGCTAG | -0.377 z-score
GACGATAGCGGGTTTCGAGACGTGCTA | 2.03 z-score
GAAGATCTCAGTTTCGAGACGTGCTAG | 3.56 z-score
TCATGATTGAATCTCCCACTGTGCTAG | 0.0713 z-score
TTAGATTTCAGTATCGAATAGTGCTAG | 2.45 z-score
TCATAAATCTTTTTCCCACTGTGCTAG | 0.91 z-score
GAAAATTAGTGTTTTGCCCTGTGCTAG | -0.254 z-score
TTAGAACTGAGTATCGATGAGTGCTAG | 3.19 z-score
TTATGTTCCGGTTTCGGTTAGTGCTAG | 8.91 z-score
TTAGGTATCGGTATCCGTTAGTGCTAG | 9.88 z-score
TCACTTTGCTCATTTTTCACTGTGCTA | 1.27 z-score
GACAGTATCCTACTGCTGACGTGCTAG | 0.0977 z-score
CCAAGGTTCAAGTTTACCCATGTGCTA | 0.0257 z-score
GACGGCTTCGGTCTCGGGACGTGCTAG | 0.0949 z-score
GACGGCTTCGACTATCGGGACGTGCTA | -0.275 z-score
AAATATTTACCTCTCACGCAGTGCTAG | 0.104 z-score
ACCCGTACTGGGTCTGGATCGTGCTAG | -0.331 z-score

Series 4
Target: RNA binding protein fox-1 homolog 2, RRM domain, GST-SBP tag (RBFOX2, Homo sapiens, UniProt O43251-10, residues 100-194)
Technique: RNA Bind-n-Seq
Molecule type: RNA
Matrix: in vitro
Concentration: 365 nM
Setting: natural RNA segment, single round, ends assumed
Reference: no-protein control
Reading: higher = stronger binding
Construct (chain): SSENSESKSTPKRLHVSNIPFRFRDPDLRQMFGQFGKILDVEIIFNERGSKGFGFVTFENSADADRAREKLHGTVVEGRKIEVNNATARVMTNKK
Sequence | RBNS enrichment (R)
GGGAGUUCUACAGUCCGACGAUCAGUGGGAACGCCCUCGACUUUGCCCUCCUCCGGAGCAUCUCUGGGACGCAGGGAGUCUGGCUAGCGUUAAUAGGAAAGGUUGCUCGGCAGAGCUGCCCUGGAGUACUGACUGGAAUUCUCGGGUGCCAA | 0.309
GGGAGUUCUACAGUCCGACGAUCAUUAUUAAGGAAUUAUUUAGAAACAAUGUGUCUAGUUUAAGAAAGUGGUUUUCAGUAUUGUGACAAUACAACGUUUUUACAAGGUUGUUUUCUACCACCAUAUUUUAAAGUGGAAUUCUCGGGUGCCAA | 0.287
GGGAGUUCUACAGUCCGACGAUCUGCCACUAAUUUUAGUAUUCAUUCUGCAUUGCUAGAUAAAAGCUGAAGUUACUUUAUGUUUGUCUUUUAAUGCUUCAUUCAAUAUUGACAUUUGUAGUUGAGCGGGGGGUUGGAAUUCUCGGGUGCCAA | 0.247
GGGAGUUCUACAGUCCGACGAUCUCAAUUUUAAAGCAUUAUUAAGACUGUAUGAACAUUUAAAAAUCCACCUAUAUUAAGUACAUCACAAGAACACAGAGGACUGAUUUUCUUUUUAUAAUUUAAUAUGUCAUUGGAAUUCUCGGGUGCCAA | 0.539
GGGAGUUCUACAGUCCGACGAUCACAAAAUGGAGAGCAUACUUACAGACUCCUGUGCGAUAGCUACUUUUAAAUACAUUUCAAUAAUUUUAACAAAUUUGCAUUUUUAUUGAGUUGCUGACUGAAUCUAUCUUUGGAAUUCUCGGGUGCCAA | 0.79
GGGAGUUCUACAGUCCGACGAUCACCACCCACUCAGGACUCUUCCCCAUCAUCCCUUCCAUUGCCACACCCUAGAUCCAGCCUCAGGAACUAACAAGUUUUGAGAAAAGCAGGUAGUAGAGCAGCAGCUUCGUUGGAAUUCUCGGGUGCCAA | 0.429
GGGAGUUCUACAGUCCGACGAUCACUGGCCCCAAGAACUGAUAAGACUCCAGUGGGGGACCACCACAUUCAUAGCCCCGUCACAGGAAGUGGGAGAUGCUCCUUUUUGUCCCAGACUGGAAAUCCAUCACAUCUGGAAUUCUCGGGUGCCAA | 0.623
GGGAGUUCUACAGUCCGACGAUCCAAAUACUAUUACUUCUCUGAGCCUCCGUUACGCCGUCUGUAAAAAGGGAGGUGAAAAUACCUACCUCACAGAACUGUUGGCUCAGAUGAGACGCUGUAUGUGUAAACAUUGGAAUUCUCGGGUGCCAA | 0.411
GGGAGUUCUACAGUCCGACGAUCUUGCAGUAGCAGCAGGGGCUGGGACGGGAUACUUUCUCUUCAGCUGGAAGAAGGCAGUGGUGGUGGACAUCACAGAGCACUGCCAUUGAUAUCAGACUCCACAUAUGGCCUGGAAUUCUCGGGUGCCAA | 0.287
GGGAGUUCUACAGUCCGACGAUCAUCUUCCUGAUCGUGGGUGAGGGAGGCCUUCCUGCUUGUUCCUUCGCAUUCUCGUGGUCUAGGCUGGGGGAGGGGUUAUCCACCUGUAGCUCUUUCAAUUGAGGUGGUUCUGGAAUUCUCGGGUGCCAA | 1.05
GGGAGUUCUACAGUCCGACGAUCGUCCAGAUUACUUAGUUUAAAUAGCUACAUUUUCUUCUGUAUCUAAAACUUCGUUAGAAGAAAGUAAUAGUAUUAUUUGCAGAAAGCCAGUCGAUCACAGCCAUUACCAAUGGAAUUCUCGGGUGCCAA | 0.332
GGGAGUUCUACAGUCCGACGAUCUAUGAUCCAGCGCUCAGCCUUCGCUCUAGGAUGCUGUGGUCCCCAUUCCCAGUUCCUCCAGUGCCAGUACUUUAGCUUGGCCUAGCCCCAGUCUCAGGAACUGUUGUGGUUGGAAUUCUCGGGUGCCAA | 0.387

Some of these lines once more (series 4):
Sequence | RBNS enrichment (R)
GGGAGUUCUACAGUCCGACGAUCACAAAAUGGAGAGCAUACUUACAGACUCCUGUGCGAUAGCUACUUUUAAAUACAUUUCAAUAAUUUUAACAAAUUUGCAUUUUUAUUGAGUUGCUGACUGAAUCUAUCUUUGGAAUUCUCGGGUGCCAA | 0.79
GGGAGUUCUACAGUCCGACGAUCACCACCCACUCAGGACUCUUCCCCAUCAUCCCUUCCAUUGCCACACCCUAGAUCCAGCCUCAGGAACUAACAAGUUUUGAGAAAAGCAGGUAGUAGAGCAGCAGCUUCGUUGGAAUUCUCGGGUGCCAA | 0.429
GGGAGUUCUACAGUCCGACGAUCACUGGCCCCAAGAACUGAUAAGACUCCAGUGGGGGACCACCACAUUCAUAGCCCCGUCACAGGAAGUGGGAGAUGCUCCUUUUUGUCCCAGACUGGAAAUCCAUCACAUCUGGAAUUCUCGGGUGCCAA | 0.623
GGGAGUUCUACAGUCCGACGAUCCAAAUACUAUUACUUCUCUGAGCCUCCGUUACGCCGUCUGUAAAAAGGGAGGUGAAAAUACCUACCUCACAGAACUGUUGGCUCAGAUGAGACGCUGUAUGUGUAAACAUUGGAAUUCUCGGGUGCCAA | 0.411
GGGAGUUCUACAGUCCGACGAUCUUGCAGUAGCAGCAGGGGCUGGGACGGGAUACUUUCUCUUCAGCUGGAAGAAGGCAGUGGUGGUGGACAUCACAGAGCACUGCCAUUGAUAUCAGACUCCACAUAUGGCCUGGAAUUCUCGGGUGCCAA | 0.287
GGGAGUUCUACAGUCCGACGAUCAUCUUCCUGAUCGUGGGUGAGGGAGGCCUUCCUGCUUGUUCCUUCGCAUUCUCGUGGUCUAGGCUGGGGGAGGGGUUAUCCACCUGUAGCUCUUUCAAUUGAGGUGGUUCUGGAAUUCUCGGGUGCCAA | 1.05
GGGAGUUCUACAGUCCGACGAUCGUCCAGAUUACUUAGUUUAAAUAGCUACAUUUUCUUCUGUAUCUAAAACUUCGUUAGAAGAAAGUAAUAGUAUUAUUUGCAGAAAGCCAGUCGAUCACAGCCAUUACCAAUGGAAUUCUCGGGUGCCAA | 0.332
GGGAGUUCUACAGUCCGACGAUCUAUGAUCCAGCGCUCAGCCUUCGCUCUAGGAUGCUGUGGUCCCCAUUCCCAGUUCCUCCAGUGCCAGUACUUUAGCUUGGCCUAGCCCCAGUCUCAGGAACUGUUGUGGUUGGAAUUCUCGGGUGCCAA | 0.387
